Measured values gathered from unrelated publications.
Numbers after ± are the reported error.
MDM4: Protein Mdm4 (MDM4, Homo sapiens, UniProt O15151)

Sequences of proteins named here, by UniProt entry; tags and fusion partners are left off. Residues count along the entry.
UniProt O15151, 23-111 limits assumed: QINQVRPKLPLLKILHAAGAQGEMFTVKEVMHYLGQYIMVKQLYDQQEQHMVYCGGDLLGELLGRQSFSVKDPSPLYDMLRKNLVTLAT
UniProt P02701, 25-152 limits assumed: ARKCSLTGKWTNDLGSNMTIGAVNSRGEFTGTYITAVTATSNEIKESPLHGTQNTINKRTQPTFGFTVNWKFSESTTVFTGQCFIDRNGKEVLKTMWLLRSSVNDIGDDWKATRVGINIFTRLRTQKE
UniProt P14842, whole entry: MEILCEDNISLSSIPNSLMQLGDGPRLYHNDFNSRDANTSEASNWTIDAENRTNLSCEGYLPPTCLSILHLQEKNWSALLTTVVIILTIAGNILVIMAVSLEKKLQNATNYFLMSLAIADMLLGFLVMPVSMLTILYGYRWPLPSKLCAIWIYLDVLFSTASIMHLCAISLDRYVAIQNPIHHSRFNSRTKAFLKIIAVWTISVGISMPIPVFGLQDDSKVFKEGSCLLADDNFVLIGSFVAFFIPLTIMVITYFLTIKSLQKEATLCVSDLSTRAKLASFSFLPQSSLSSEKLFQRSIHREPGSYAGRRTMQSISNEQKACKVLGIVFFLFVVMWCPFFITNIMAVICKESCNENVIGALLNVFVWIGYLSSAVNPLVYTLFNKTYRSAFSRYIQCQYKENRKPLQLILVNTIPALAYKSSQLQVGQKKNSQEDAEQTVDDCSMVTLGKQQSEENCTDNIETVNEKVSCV
UniProt Q9Y2M5, 317-603 limits assumed: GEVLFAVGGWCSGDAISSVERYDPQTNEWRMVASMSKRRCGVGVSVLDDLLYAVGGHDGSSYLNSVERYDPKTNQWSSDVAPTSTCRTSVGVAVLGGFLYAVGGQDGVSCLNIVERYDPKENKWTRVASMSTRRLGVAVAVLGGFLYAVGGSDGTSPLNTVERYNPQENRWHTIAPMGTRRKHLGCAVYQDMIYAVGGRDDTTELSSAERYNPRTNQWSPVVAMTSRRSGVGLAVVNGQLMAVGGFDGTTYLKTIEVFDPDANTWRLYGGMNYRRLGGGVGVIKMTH
UniProt P28072, 35-239 limits assumed: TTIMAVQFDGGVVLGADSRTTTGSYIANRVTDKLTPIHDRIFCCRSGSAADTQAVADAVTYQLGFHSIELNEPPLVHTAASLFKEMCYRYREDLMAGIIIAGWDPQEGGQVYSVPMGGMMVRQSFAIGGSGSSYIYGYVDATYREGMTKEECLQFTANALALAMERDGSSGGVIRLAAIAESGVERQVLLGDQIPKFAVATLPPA
UniProt P16083, whole entry: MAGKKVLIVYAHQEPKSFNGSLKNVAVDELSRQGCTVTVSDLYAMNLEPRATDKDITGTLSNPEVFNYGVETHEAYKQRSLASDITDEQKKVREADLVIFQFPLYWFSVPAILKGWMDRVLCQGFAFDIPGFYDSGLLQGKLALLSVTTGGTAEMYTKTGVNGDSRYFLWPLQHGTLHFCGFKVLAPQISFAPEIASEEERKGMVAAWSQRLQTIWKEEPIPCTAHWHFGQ
UniProt P18440, whole entry: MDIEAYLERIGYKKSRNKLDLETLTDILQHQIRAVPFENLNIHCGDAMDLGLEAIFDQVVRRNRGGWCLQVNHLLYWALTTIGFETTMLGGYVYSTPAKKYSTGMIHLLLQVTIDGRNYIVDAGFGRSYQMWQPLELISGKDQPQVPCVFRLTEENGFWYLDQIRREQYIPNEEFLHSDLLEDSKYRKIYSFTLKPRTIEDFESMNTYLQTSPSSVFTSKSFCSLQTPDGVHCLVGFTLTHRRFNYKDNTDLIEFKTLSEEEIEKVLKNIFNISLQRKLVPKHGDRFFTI
UniProt P21462, whole entry: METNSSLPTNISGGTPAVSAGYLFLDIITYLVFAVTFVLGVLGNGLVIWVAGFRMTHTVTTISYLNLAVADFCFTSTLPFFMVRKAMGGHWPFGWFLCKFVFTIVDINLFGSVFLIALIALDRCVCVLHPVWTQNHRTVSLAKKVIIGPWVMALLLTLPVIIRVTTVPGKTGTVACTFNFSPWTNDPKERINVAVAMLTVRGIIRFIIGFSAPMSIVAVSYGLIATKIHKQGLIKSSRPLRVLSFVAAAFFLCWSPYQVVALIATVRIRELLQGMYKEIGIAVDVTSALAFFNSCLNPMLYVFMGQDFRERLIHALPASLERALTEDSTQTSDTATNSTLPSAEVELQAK
UniProt A0A0D3DNX9, 1-518: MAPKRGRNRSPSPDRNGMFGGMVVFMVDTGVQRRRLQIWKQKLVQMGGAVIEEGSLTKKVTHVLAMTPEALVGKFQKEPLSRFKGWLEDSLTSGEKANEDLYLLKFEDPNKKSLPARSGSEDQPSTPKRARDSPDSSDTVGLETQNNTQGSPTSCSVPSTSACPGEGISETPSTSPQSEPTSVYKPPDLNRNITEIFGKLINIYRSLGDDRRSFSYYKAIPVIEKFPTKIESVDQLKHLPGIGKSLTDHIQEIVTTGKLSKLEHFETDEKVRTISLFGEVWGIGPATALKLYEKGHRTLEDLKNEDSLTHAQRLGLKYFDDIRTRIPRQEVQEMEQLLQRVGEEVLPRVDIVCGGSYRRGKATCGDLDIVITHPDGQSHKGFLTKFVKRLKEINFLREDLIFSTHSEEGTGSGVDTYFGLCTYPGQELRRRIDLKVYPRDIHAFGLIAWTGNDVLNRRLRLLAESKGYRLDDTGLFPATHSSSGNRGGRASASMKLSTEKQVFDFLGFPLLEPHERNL
UniProt Q16539, whole entry: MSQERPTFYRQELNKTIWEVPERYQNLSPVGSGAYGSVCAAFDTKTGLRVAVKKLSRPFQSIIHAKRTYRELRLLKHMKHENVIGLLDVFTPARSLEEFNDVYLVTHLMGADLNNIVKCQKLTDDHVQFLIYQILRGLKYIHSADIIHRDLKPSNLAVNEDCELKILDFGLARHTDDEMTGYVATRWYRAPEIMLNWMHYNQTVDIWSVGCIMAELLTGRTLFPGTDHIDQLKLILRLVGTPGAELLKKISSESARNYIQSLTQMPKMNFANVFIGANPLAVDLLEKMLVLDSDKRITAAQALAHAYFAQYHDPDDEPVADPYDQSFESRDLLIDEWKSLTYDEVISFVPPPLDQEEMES
UniProt Q9Y3Q0, whole entry: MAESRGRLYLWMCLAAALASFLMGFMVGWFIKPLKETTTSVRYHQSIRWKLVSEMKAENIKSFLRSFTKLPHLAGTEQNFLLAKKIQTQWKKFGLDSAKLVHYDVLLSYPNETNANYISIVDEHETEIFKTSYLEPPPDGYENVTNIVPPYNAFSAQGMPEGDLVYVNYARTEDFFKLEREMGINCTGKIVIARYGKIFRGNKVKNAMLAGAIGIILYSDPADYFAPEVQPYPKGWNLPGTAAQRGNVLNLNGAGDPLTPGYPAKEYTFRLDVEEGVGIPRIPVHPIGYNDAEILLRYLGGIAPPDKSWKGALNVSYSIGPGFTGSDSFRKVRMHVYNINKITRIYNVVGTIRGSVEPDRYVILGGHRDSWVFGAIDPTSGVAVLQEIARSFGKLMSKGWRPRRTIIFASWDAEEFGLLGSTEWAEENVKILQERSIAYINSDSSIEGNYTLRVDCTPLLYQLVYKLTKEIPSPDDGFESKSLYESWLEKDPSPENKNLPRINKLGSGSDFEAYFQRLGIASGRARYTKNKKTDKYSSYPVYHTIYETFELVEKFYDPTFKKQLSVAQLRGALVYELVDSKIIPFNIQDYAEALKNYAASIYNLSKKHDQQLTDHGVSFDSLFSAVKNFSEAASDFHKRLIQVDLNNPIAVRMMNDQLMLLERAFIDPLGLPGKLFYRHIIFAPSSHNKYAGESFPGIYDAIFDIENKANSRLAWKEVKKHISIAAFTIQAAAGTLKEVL

SMILES	tested on	assay	system	setting	measurement	result
C=C(C)C(=O)Nc1ccc(-c2c(-c3ccc(Oc4nccc(C)n4)c(F)c3)c3c(N)ncnc3n2C)cc1	ESS-1	cell growth, CellTiter-Glo		120 h	IC50	691 nM
COc1ccc(C2=N[C@@H](c3cccc(Cl)c3)[C@@H](c3ccc(Cl)cc3)N2C(=O)N2CCNC(=O)C2)c(OC(C)C)c1 (relative stereo)	MDM4			pH 6.5, 298 K, global fit common resonances	Kd	6000 ± 1800 nM
N#Cc1c(-c2ccc(Cl)cc2Cl)n(-c2nc(-c3ccc(Cl)cc3)c3c(NC(=O)c4ccccc4)nnc-3[nH]2)[nH]c1=O	SF-539	SRB		10 µM	cell growth	-63.7%
CC[C@H](C)[C@@H]1NC(=O)[C@H](C(C)C)NC(=O)[C@H](Cc2ccc(O)cc2)NC(=O)[C@H](Cc2ccccc2)NC(=O)[C@H](CCC(N)=O)NC(=O)[C@@H]2CCCN2C(=O)[C@H](Cc2c[nH]cn2)NC(=O)[C@@H](NC(=O)[C@H](C)N)CSSC[C@@H](C(=O)N[C@@H](CO)C(=O)NCC(=O)O)NC1=O	Avidin, deglycosylated (AVD, Gallus gallus, UniProt P02701)	binding, yeast display flow cytometry		30 to 300 nM, 1 h, 4 °C, together with: neutravidin-DyLight 650	apparent Kd	no binding
c1cnc2c(N3CCN(CCCN4CCN(c5cccc6sccc56)CC4)CC3)cccc2c1	5-hydroxytryptamine receptor 2A (Rattus norvegicus, UniProt P14842)	binding			Ki	83.4 ± 9.7 nM
Cc1cc(S(=O)(=O)N[C@H](C)CO[C@H]2CC[C@H](CN3CCN(c4ccc5c(c4F)n(C)c(=O)n5C4CCC(=O)NC4=O)CC3)CC2)ccc1Nc1ncc(C(F)(F)F)c([C@H]2CC[C@@](C)(O)CC2)n1 (some centres unmarked)	Cyclin-dependent kinase 2 (CDK2, Homo sapiens, UniProt P24941)	degrader, AlphaLISA	MKN-1 CCNE1-amplified	14 h	DC50	13 nM
C[C@H](NC(=O)[C@@H](N)Cc1ccc(O)cc1)C(=O)NCC(=O)N[C@@H](COP(=O)(O)O)C(=O)N[C@H](C(=O)N[C@@H](CC(=O)O)C(=O)N[C@@H](CCC(=O)O)C(=O)N[C@@H](CC(N)=O)C(=O)N[C@H](C(=O)N[C@@H](CC(=O)O)C(=O)N[C@@H](CO)C(=O)N[C@@H](CCC(=O)O)C(=O)O)[C@@H](C)O)[C@@H](C)O	Bifunctional polynucleotide phosphatase/kinase, FHA domain (Homo sapiens, UniProt Q96T60)	binding, isothermal titration calorimetry		400 µM, pH 7.5, 10 °C	Kd	no binding
COc1cccc([C@@H]2N=C(c3ccc(OC)cc3OC(C)C)N(C(=O)N3CCNC(=O)C3)[C@@H]2c2ccc(Cl)cc2)c1 (relative stereo)	MDM4			pH 6.5, 298 K, global fit common resonances	Kd	4200 ± 1000 nM
Cc1sc2c(c1C)C(c1ccc(Cl)cc1)=N[C@@H](CC(=O)NCC(=O)NCC(=O)NCC(=O)NCC(=O)N[C@H]1CSCc3cccc(c3)CSC[C@@H](C(N)=O)NC(=O)[C@H](CC(C)C)NC(=O)[C@H](CC(=O)O)NC(=O)[C@@H]3CCCN3C1=O)c1nnc(C)n1-2	BRD4/KLHL20, BD1 (Homo sapiens, UniProt O60885+Q9Y2M5)	ternary complex formation, ELISA		together with: immobilized KLHL20 Kelch domain	EC50	8 nM
CC(C)CC(NC(=O)C(Cc1ccccc1)NC(=O)c1cnc(C(=O)NC(Cc2ccccc2)C(=O)NC(CC(C)C)B(O)O)cn1)B(O)O (centres unmarked)	Proteasome subunit beta type-6 (PSMB6, Homo sapiens, UniProt P28072)	caspase-like activity, inhibitor, Proteasome-Glo	RPMI-8226	24 h	IC50	13.5 ± 0.87 nM
CCOC(=O)c1c(-c2ccc(Cl)cc2Cl)n(-c2nc(-c3ccc(Cl)cc3)c3c(NC(=O)c4ccccc4)nnc-3[nH]2)[nH]c1=O	SK-MEL-28	SRB		10 µM	cell growth	14.3%
CON(C1CC[C@@]2(C)[C@H](CC[C@@H]3[C@@H]2CC[C@]2(C)[C@@H](c4ccc(=O)oc4)CC[C@]32O)C1)C1OCC(O)C(O)C1O (some centres unmarked)	Atp1a2, with beta-1 subunit (Rattus norvegicus, UniProt P06686)	Na+/K+ pump current, inhibitor, two-electrode voltage clamp	Xenopus oocytes expressing rat α2/β1	holding potential -60 mV, endogenous current subtracted	IC50	110 nM
CN(C)CCNC(=O)c1cc([N+](=O)[O-])cc2ccc(-c3ccccc3)nc12	Ribosyldihydronicotinamide dehydrogenase [quinone] (NQO2, Homo sapiens, UniProt P16083)	enzyme activity, inhibitor			IC50	40 nM
CCOC(=O)Oc1ccc2c(c1OC(=O)OCC)C(=O)c1ccccc1C2=O	Arylamine N-acetyltransferase 1 (NAT1, Homo sapiens, UniProt P18440)	PABA N-acetylation, inhibitor	cryopreserved human hepatocytes	1 h preincubation, together with: 10 µM p-aminobenzoic acid	IC50	75500 ± 300 nM
NS(=O)(=O)c1nnc(NC(=O)C2C3CC2C3)s1 (centres unmarked)	Carbonic anhydrase 2 (CA2, Homo sapiens, UniProt P00918)	CO2 hydration, inhibitor, stopped-flow kinetics			Ki	30.5 nM
CCc1cc2c(=O)c(-c3nc4ccccc4n3C)c(C)oc2cc1OC(C)=O	fMet-Leu-Phe receptor (FPR1, Homo sapiens, UniProt P21462)	binding			Ki	95 nM
CC/C=C\C/C=C\CCC/C=C/C=C/C=C\CCCC(=O)O	DNA polymerase (Brassica oleracea var. botrytis, UniProt A0A0D3DNX9)	enzyme activity, inhibitor			IC50	> 100000 nM
CC(C)C[C@H](NC(=O)[C@H](C)NC(=O)[C@H](CCCNC(=N)N)NC(=O)[C@H](CCCNC(=N)N)NC(=O)[C@H](CCCNC(=N)N)NC(=O)[C@H](C)NC(=O)[C@H](CC(C)C)NC(=O)[C@H](CCCNC(=N)N)NC(=O)[C@H](CO)NC(=O)[C@H](CCCCN)NC(=O)[C@H](CO)NC(=O)Cn1cc(COC(=O)[C@]2(C)C=C(C(=O)OC(C)(C)C)C(=O)CC2)nn1)C(=O)O	Mitogen-activated protein kinase 14 (MAPK14, Homo sapiens, UniProt Q16539)	enzyme activity, inhibitor, D-SENSOR		0.03048 µM	normalized kinase activity	0.942
CC[C@@H](C(=O)NCCCOCCOCCOCCCNC(=O)c1ccc2c(c1)C1(OC2=O)c2ccc(N3CC(F)C3)cc2[Si](C)(C)c2cc(N3CC(F)C3)ccc21)[C@@H]1N=C(c2ccc(Cl)cc2)c2c(sc(C)c2C)-n2c(C)nnc21	Bromodomain-containing protein 4, BD2 (BRD4, Homo sapiens, UniProt O60885, L387A/H437A/M452G)	fluorescence cell imaging	human cells		Kd	159 nM
C#CCC(NC(=O)C1CC(C2CCCCC2)CN1C(=O)CSC1CCN(C(=O)CCC(NC(=O)NC(CCC(=O)O)C(=O)O)C(=O)O)CC1)C(=O)NCCOCCOCCNC(=S)Nc1ccc2c(c1)C(=O)OC21c2ccc(O)cc2Oc2cc(O)ccc21 (centres unmarked)	N-acetylated-alpha-linked acidic dipeptidase 2 (Homo sapiens, UniProt Q9Y3Q0)	fluorescence polarization		FITC-labelled compound	Kd	40 nM

Some of these lines once more:
SMILES	tested on	assay	system	setting	measurement	result
CC[C@@H](C(=O)NCCCOCCOCCOCCCNC(=O)c1ccc2c(c1)C1(OC2=O)c2ccc(N3CC(F)C3)cc2[Si](C)(C)c2cc(N3CC(F)C3)ccc21)[C@@H]1N=C(c2ccc(Cl)cc2)c2c(sc(C)c2C)-n2c(C)nnc21	Bromodomain-containing protein 4, BD2 (BRD4, Homo sapiens, UniProt O60885, L387A/H437A/M452G)	fluorescence cell imaging	human cells		Kd	159 nM
COc1cccc([C@@H]2N=C(c3ccc(OC)cc3OC(C)C)N(C(=O)N3CCNC(=O)C3)[C@@H]2c2ccc(Cl)cc2)c1 (relative stereo)	MDM4			pH 6.5, 298 K, global fit common resonances	Kd	4200 ± 1000 nM
